Measured values pooled from the literature.
A part holds a random share of what one study measured. Substitutions count along the parent as printed.

Study 1
Target: Centromere-binding protein 1, full length, His-tagged (CBF1, Saccharomyces cerevisiae, UniProt P17106, residues 1-351)
Chain of UniProt P17106 (whole entry, looked up): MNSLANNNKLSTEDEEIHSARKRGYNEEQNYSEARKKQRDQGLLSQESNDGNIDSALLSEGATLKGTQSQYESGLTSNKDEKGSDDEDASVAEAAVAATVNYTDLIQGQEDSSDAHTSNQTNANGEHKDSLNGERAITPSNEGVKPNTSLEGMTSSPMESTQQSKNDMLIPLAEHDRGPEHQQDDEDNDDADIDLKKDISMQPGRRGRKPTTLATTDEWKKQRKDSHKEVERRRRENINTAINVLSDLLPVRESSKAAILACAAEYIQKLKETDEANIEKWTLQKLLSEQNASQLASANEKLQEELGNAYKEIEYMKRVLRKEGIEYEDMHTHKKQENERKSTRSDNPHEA
Method: competition protein-binding microarray
Molecule type: double-stranded DNA, one strand shown
Medium: in vitro
Tested at: 2 µM
Notes: whole 60-bp probe, lowest competitor level
Added: Pho4 competitor, 0.05 µM
Reading: higher = stronger binding
`CTTCTGTAAATTTGACTCGTGGGTGGACGCGCCCCGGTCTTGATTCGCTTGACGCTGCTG` gave a fluorescence intensity of 89.5 a.u.
The fluorescence intensity of `ACATCAAGACAGCGTCACAGTCAGCTAAACAGAAAAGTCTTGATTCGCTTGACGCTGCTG` is reported as 56.6 a.u.
For `GTCTTGTCTCATTGTCACTTAACTTTCCCCACTTCAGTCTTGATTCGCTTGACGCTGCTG`, the fluorescence intensity was 75.9 a.u.
The fluorescence intensity of `CTGTTACTTACACTGAACACGCCAAGAGAAAGACTGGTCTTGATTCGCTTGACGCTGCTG` is reported as 85.4 a.u.
For `TGCGCAACAACTTGCTCAGTGGGTGTATGTCTAGAAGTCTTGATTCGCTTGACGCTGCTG`, the fluorescence intensity was 73 a.u.
For `AAATCTGTCAGCTTGCACACGCCTTCCGGGGATAGCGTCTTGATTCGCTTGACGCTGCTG`, the fluorescence intensity was 71.1 a.u.
With `TGATTGTCAGTCGTTCGCGTGGGTACAACTTTGGTCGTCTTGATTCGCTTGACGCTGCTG` the fluorescence intensity was 76.6 a.u.
For `TCCATTCTCTACGGCCACGCTGAAACACGAATCATCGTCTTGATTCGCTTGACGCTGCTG`, the fluorescence intensity was 88.6 a.u.

Study 2
Target: PABPC1L2, full length, GST fusion (mouse, UniProt A0ABA7IW68)
Method: RNAcompete
Molecule type: RNA
Medium: in vitro
Tested at: 20 nM
Notes: 7-mer, probes averaged, single round
Relative to: mean of 7-mers
Reading: higher = stronger binding
Construct (chain): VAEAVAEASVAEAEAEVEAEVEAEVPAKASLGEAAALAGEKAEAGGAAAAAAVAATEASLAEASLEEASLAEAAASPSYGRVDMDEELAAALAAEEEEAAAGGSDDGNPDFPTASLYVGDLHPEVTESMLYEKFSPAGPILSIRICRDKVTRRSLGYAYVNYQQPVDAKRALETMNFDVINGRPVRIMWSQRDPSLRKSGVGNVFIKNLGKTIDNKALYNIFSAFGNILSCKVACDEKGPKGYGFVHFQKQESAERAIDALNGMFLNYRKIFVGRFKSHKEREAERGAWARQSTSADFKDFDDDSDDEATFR
For `ACAGCUA`, the 7-mer Z-score was -0.0047.
`CGGGUCA` has a 7-mer Z-score of 0.133.
For `AGUAUUU`, the 7-mer Z-score was -0.177.
`GUGCUAC` gave a 7-mer Z-score of -0.121.
With `AAGCUCG` the 7-mer Z-score was -0.0772.
`GUUUACG` has a 7-mer Z-score of -0.367.
With `CUGAUGG` the 7-mer Z-score was 0.000733.
With `AGACCUC` the 7-mer Z-score was -0.389.

Study 3
Target: Interferon regulatory factor 7, full length, phosphomimetic (IRF7, Homo sapiens, UniProt Q92985, residues 1-503, S101K/S471D/S472D/S475D/S476D/S477D/S483D/S484D/S487D)
Method: protein-binding microarray
Molecule type: double-stranded DNA, one strand shown
Medium: in vitro
Tested at: 250 nM
Notes: 60-bp whole probe
Added: salmon DNA 0.4 mg/ml
Relative to: random background probes
Reading: higher = stronger binding
All sequences stand within: GCCTAGCAC … GTCTTGATTCGCTTGACGCTGCTG
Target sequence (chain): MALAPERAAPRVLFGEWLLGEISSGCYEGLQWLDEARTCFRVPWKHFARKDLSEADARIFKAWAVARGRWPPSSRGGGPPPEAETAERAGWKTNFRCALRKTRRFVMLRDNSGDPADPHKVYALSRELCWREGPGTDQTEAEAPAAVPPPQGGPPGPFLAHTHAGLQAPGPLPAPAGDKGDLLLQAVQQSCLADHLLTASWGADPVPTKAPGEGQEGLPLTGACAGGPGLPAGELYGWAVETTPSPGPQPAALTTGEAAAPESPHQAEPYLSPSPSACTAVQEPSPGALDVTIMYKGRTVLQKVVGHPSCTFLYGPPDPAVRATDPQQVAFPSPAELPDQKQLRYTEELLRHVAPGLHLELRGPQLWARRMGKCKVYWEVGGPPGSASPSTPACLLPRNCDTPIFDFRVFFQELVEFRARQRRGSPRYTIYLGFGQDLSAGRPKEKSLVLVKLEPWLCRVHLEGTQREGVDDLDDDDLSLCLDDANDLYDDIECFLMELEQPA
`GACGAGTTCAGTTCCGAGACGTGCTAG` gave a log fluorescence of 0.418 z-score.
The log fluorescence of `GTCGGTTTCGGACTGGGGACGTGCTAG` is reported as 5.13 z-score.
With `CTTGTTTCCAGTATATTTAAGTGCTAG` the log fluorescence was 2.82 z-score.
`TTAGAACTGGGGTAACGATTAGTGCTA` gave a log fluorescence of -0.583 z-score.
`TTAGAACTGAGTCTAGATTAGTGCTAG` gave a log fluorescence of -0.241 z-score.
For `TCATTTTTTTAATTGAGACTGTGCTAG`, the log fluorescence was 0.473 z-score.
`GACGGACTGGGGTATCGGGACGTGCTA` gave a log fluorescence of -0.415 z-score.
`TGAGGTTTCGACTATCGGTTAGTGCTA` has a log fluorescence of 4.79 z-score.

Single results of other studies
Starting sequence: viral docking peptide; YKVKRRLVFGADD
`YKVKRRLVWGADD [F9W]` — result for “normalised enrichment score”: 1.05 (CCNA1, cyclin fold, Cln2 fusion (human); yeast growth competition, sequencing; yeast; strong parent motif; relative to: not given, higher = stronger binding).

Excerpt of the above (study 1):
The fluorescence intensity of `ACATCAAGACAGCGTCACAGTCAGCTAAACAGAAAAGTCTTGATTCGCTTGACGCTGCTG` is reported as 56.6 a.u.
For `GTCTTGTCTCATTGTCACTTAACTTTCCCCACTTCAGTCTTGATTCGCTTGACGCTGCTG`, the fluorescence intensity was 75.9 a.u.
The fluorescence intensity of `CTGTTACTTACACTGAACACGCCAAGAGAAAGACTGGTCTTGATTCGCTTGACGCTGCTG` is reported as 85.4 a.u.
